Measured values from different studies.
Each line is one published result; not all experiments were run side by side. “And” joins repeats or separate records; there may be more than shown. Numbers after ± are the reported error.
YAP1 WW2 domain: Transcriptional coactivator YAP1, WW2 domain (YAP1, Homo sapiens, UniProt P46937)
CFTR del508-508: Cystic fibrosis transmembrane conductance regulator (CFTR, Homo sapiens, UniProt P13569, del508-508)
YAP1 WW1 domain: Transcriptional coactivator YAP1, WW1 domain (YAP1, Homo sapiens, UniProt P46937)
KCNT1: Potassium channel subfamily T member 1 (KCNT1, Homo sapiens, UniProt Q5JUK3)
Kelch domain-containing protein 2: Kelch domain-containing protein 2 (UniProt Q9Y2U9)
T1: DNA aptamer; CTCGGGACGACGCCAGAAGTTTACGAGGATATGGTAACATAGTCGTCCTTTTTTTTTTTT
T2: miR-21 precursor (Homo sapiens); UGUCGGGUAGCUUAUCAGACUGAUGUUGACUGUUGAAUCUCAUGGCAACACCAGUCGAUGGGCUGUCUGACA

Nc1cc(COc2c(Cl)cc(C[C@H](N)C(=O)O)cc2Cl)c2oc(-c3ccccc3)nc2c1 has a remaining activity of ~60% (Large neutral amino acids transporter small subunit 1 (SLC7A5, Homo sapiens, UniProt Q01650); leucine uptake, inhibitor; HEK293 expressing human LAT1; 20 µM, 30 min, read 60 min after washout, together with: L-[14C]leucine 1 µM; reference: untreated).
Brc1ccccc1SSc1ccccc1Br gave an inhibition of 34 ± 4% (tubulin; colchicine binding, [3H]colchicine binding; 50 µM, 10 min, 37 °C, together with: [3H]colchicine 5.0 µM).
OC[C@@H]1[C@@H](O)[C@H](O)[C@@H](O)[C@@H]2O[C@H]12 has a kinact of 0.0117 s⁻¹ (Lysosomal acid glucosylceramidase (GBA1, Homo sapiens, UniProt P04062, R534H); enzyme activity, inhibitor; pH 5.2).
CC1CNCCN1S(=O)(=O)c1cccc2cnccc12.Cl.Cl (stereo not drawn) — result for “bound fibrinogen fluorescence”: 423 ± 45 MFI (integrin alphaM beta2 (human); ligand binding, inhibitor, flow cytometry; human neutrophils; concentration not given, 1 h, 37 °C, integrin clustering inhibitor, together with: Alexa 488-labelled fibrinogen; reference: no inhibitor, lower means less binding).
Nc1ncnc2c1ncn2[C@@H]1O[C@H](COP(=O)(O)OP(=O)(O)OP(=O)(O)O)[C@@H](O)[C@H]1O — result for “dissociation rate constant”: 1.9 ± 0.21 s⁻¹ (Sodium/potassium-transporting ATPase subunit alpha-1 (ATP1A1, Canis lupus familiaris, UniProt P50997); binding, ligand dissociation kinetics; dog enzyme; Na+ 200 mM, 4 °C, Arg+ replacement, total monovalent cation 500 mM, nitrate, preparation B).
C[C@]12CC[C@H](O)CC1=CC[C@@H]1[C@@H]2CC[C@]2(C)C(c3cccnc3)=CC[C@@H]12: “conversion to DHEA” 2.6% (Steroid 17-alpha-hydroxylase/17,20 lyase (CYP17A1, Homo sapiens, UniProt P05093); enzyme activity; HEK293 expressing CYP17A1; 1 nM, 3 h, together with: [3H]pregnenolone).
For CC(C)C[C@H](NC(=O)[C@@H](NC(=O)[C@@H](N)[C@@H](C)O)C(C)C)C(=O)N1CCC[C@H]1C(=O)N1CCC[C@H]1C(=O)N1CCC[C@H]1C(=O)N1CCC[C@H]1C(=O)N[C@@H](Cc1ccc(O)cc1)C(=O)N[C@@H](CCCNC(=N)N)C(=O)N[C@@H](Cc1c[nH]cn1)C(=O)N[C@@H](C)C(=O)N[C@@H](CC(N)=O)C(=O)O, the ΔH was -9.06 ± 0.11 kcal/mol (YAP1 WW2 domain; binding, ITC; pH 7.0, 25 °C, WW2 domain).
Cc1cc(C)c2cc(C#N)c(N3CCN(C(=O)c4cccnc4)CC3)nc2c1: EC50 “inactive” (CFTR del508-508; ΔF508-CFTR correction, corrector; FRT; up to 25 µM, 37 °C, together with: forskolin 20 µM + genistein 50 µM).
For CC[C@H](C)[C@H](NC(=O)[C@@H]1CCCN1C(=O)[C@@H]1CCCN1C(=O)[C@@H]1CCCN1C(=O)[C@@H](NC(=O)[C@H](CC(N)=O)NC(=O)[C@@H](N)Cc1ccccc1)[C@@H](C)CC)C(=O)N[C@@H](Cc1ccc(O)cc1)C(=O)N[C@H](C(=O)N[C@@H](CO)C(=O)N[C@@H](CCCNC(=N)N)C(=O)N[C@@H](C)C(=O)O)[C@@H](C)O, the ΔG was -5.4 ± 0.09 kcal/mol (YAP1 WW1 domain; binding, ITC; pH 7.0, 25 °C, WW1 domain).
With CC(C)CCN[C@@H]1C[C@@H](c2ccc(Cl)c(Cl)c2)c2ccccc21 (relative stereo) the Ki' was 16.8 ± 3.3 µM (Trypanothione reductase (TPR, Trypanosoma cruzi, UniProt P28593); enzyme activity, mixed inhibitor; together with: trypanothione disulfide 0.58 to 50 µM).
For COc1c(Nc2cc(C(F)(F)F)cc(C(F)(F)F)c2)c(=O)c1=O, the HRP binding was ≥ 50% (CD209 antigen (CD209, Homo sapiens, UniProt Q9NNX6); activator, plate-based HRP; 500 µM, overnight, 4 °C or RT; reference: DMSO control).
Under “transit peptide conversion”, c1cnc2c(c1)ccc1cccnc12 is recorded as “inhibited” (Stromal processing peptidase, chloroplastic (SPP, Pisum sativum, UniProt Q40983); 5 mM).
Cc1ccc(S(=O)(=O)N2CCC2=O)cc1 has a phosphopantetheine acylation of ~80% (Erythronolide synthase EryA1, module 2 ACP, holo (eryA, Saccharopolyspora erythraea, UniProt Q03131); substrate, LC-MS of tryptic digest; 10 equivalents, 1 h, pH 7, room temperature).
CC(C)C[C@H](NC(=O)[C@@H](NC(=O)[C@@H](N)[C@@H](C)O)C(C)C)C(=O)N1CCC[C@H]1C(=O)N1CCC[C@H]1C(=O)N1CCC[C@H]1C(=O)N[C@@H](C)C(=O)N[C@@H](Cc1ccc(O)cc1)C(=O)N[C@@H](CCCNC(=N)N)C(=O)N[C@@H](Cc1c[nH]cn1)C(=O)N[C@@H](CCCNC(=N)N)C(=O)N[C@@H](CC(N)=O)C(=O)O has a ΔG of -5.74 ± 0.07 kcal/mol (YAP1 WW1 domain; binding, ITC; pH 7.0, 25 °C, WW1 domain).
Nc1ccc(-c2nc([C@H]3CCc4cc(-c5cc(Cl)ccc5-n5cnnn5)cc(=O)n43)c(F)[nH]2)c(F)n1: “FXI activity inhibition” 73 ± 9.6% (Coagulation factor XI (F11, Homo sapiens, UniProt P03951); human, blood; oral, 150 mg once daily, fed, day 14, 24 h).
For Cc1nnc2c(S(=O)(=O)N3CC(c4nc(-c5ccc(F)cc5)no4)C3)cccn12, activity class read “inactive” (KCNT1; Tl+ flux, inhibitor; HEK293 expressing KCNT1; 30 µM).
For CC(C)C[C@H](NC(=O)[C@@H](NC(=O)[C@@H](N)[C@@H](C)O)C(C)C)C(=O)N1CCC[C@H]1C(=O)N1CCC[C@H]1C(=O)N1CCC[C@H]1C(=O)N1CCC[C@H]1C(=O)N[C@@H](Cc1ccc(O)cc1)C(=O)N[C@@H](C)C(=O)N[C@@H](Cc1c[nH]cn1)C(=O)N[C@@H](CCCNC(=N)N)C(=O)N[C@@H](CC(N)=O)C(=O)O, the ΔG was -5.49 ± 0.06 kcal/mol (YAP1 WW2 domain; binding, ITC; pH 7.0, 25 °C, WW2 domain).
With N[C@@H](Cc1cnc[nH]1)C(=O)O the ΔTm was 6.3 °C (Histidine--tRNA ligase, cytoplasmic (HARS1, Homo sapiens, UniProt P12081, R362H); thermal stability, DSF).
With `IKPAKRMKFKTVCYLLVQLMHCRKMFKA` the koff1 was > 500 s⁻¹ (Calmodulin-1 (Calm1, Rattus norvegicus, UniProt P0DP29, D130A/D94A); Ca2+ dissociation, stopped-flow quin-2 fluorescence; peptide; 2 µM, pH 7.4, 22 °C, together with: Ca2+-calmodulin complex).
O=S(=O)(Sc1ccccc1Br)c1ccccc1Br has an inhibition of 90 ± 0.3% (tubulin; colchicine binding, [3H]colchicine binding; 50 µM, 10 min, 37 °C, together with: [3H]colchicine 5.0 µM).
`LPEFGG`: “fraction of protein bound” 4.9% (Kelch domain-containing protein 2; native mass spectrometry; peptide, 200 mM ammonium acetate; 20 µM Kelch domain-containing protein 2, pH 7; reference: total Kelch domain-containing protein 2 signal).
With Cc1ccc(S(=O)(=O)OCC(=O)Nc2ccc(C(=O)O)c(O)c2)cc1 the luminescence was 115% (Fibroblast growth factor 14/SCN8A, Nav1.6 C-terminal tail (Homo sapiens, UniProt Q92915+Q9UQD0); FGF14-Nav1.6 complex formation, luciferase complementation; HEK293 stably expressing both; 30 µM; reference: DMSO).
Cc1ccc2cccc(S(=O)(=O)N3CC(c4nc(-c5ccc(F)cc5)no4)C3)c2n1 gave an efficacy of 100% (KCNT1; ion current, activator, automated patch clamp; CHO; 30 µM; reference: bepridil 60 µM).
C/C(=N/N=c1/scc(-c2ccc(Br)cc2)n1-c1c(C)cccc1C)c1ccc2c(c1)NC(=O)CO2 has an inhibition of 12.4% (Aldo-keto reductase family 1 member A1 (Bos taurus, UniProt Q3ZCJ2); enzyme activity, inhibitor, absorbance; 1 mM).
Under “fraction of protein bound”, `SSDHLFLFGG` is recorded as 1.8% (Kelch domain-containing protein 2; native mass spectrometry; peptide, 200 mM ammonium acetate; 20 µM Kelch domain-containing protein 2, pH 7; reference: total Kelch domain-containing protein 2 signal).
The koff1 of `YSLAAVVLGLVQSLNRQRQKQLLNE` is reported as 8.45 s⁻¹ and 8.5 s⁻¹ (Calmodulin-1 (Calm1, Rattus norvegicus, UniProt P0DP29, D21A/D57A); Ca2+ dissociation, stopped-flow quin-2 fluorescence; peptide; 2 µM, pH 7.4, 22 °C, together with: Ca2+-calmodulin complex).
CC1=C(/C=C/C(C)=C/C=C/C(C)=C/C(=O)O)C(C)(C)CCC1 has a remaining activity of 100% (Retinoic acid receptor alpha (RARA, Homo sapiens, UniProt P10276); reporter gene, antagonist, Gal4 transactivation luciferase; HEK293; 0.1 µM, together with: all-trans retinoic acid 100 nM; reference: agonist alone).
The IC80 of NS(=O)(=O)c1ccc(N2N=C(C(F)(F)F)C[C@H]2c2ccc(F)cc2F)cc1 is reported as 169 µM (Prostaglandin G/H synthase 1 (Canis lupus familiaris, UniProt Q8HZR1); TXB2 formation, inhibitor; clotting dog whole blood; 1 h, 37 °C).
`IINFEKE`: “K1/2 of L-AMC” 0.35 ± 0.08 mM (Endoplasmic reticulum aminopeptidase 1 (ERAP1, Homo sapiens, UniProt Q9NZ08, F803R); substrate; peptide; pH 8.0, 27 °C, mutant F803R, together with: L-AMC, peptide activator 100 µM).
The ΔH of CSCC[C@H](NC(=O)[C@@H]1CCCN1C(=O)[C@@H](NC(=O)[C@H](Cc1ccc(O)cc1)NC(=O)[C@H](C)NC(=O)[C@@H]1CCCN1C(=O)[C@@H]1CCCN1C(=O)[C@@H]1CCCN1C(=O)[C@H](CO)NC(=O)[C@H](Cc1c[nH]cn1)NC(=O)CN)[C@@H](C)O)C(=O)N[C@@H](CO)C(=O)O is reported as -4.23 ± 0.45 kcal/mol (YAP1 WW2 domain; binding, ITC; pH 7.0, 25 °C, WW2 domain).
With COc1ccc(C(=O)NCCCNc2nc3cc(C)cc(C)c3cc2C#N)cc1 the Vmax was 112 µM/s (CFTR del508-508; CFTR correction, corrector, iodide influx rate; FRT expressing YFP-H148Q/I152L; up to 25 µM, 16-20 h, 37 °C, together with: forskolin 20 µM, genistein 50 µM).
CC(=O)[C@H]1CC[C@H]2[C@@H]3CCC4=CC(=O)CC[C@]4(C)[C@H]3CC[C@]12C — result for binding: “binds weakly” (T1, DNA aptamer; probe displacement, competitor, microarray).
CC[C@@]1(O)C[C@H](O[C@H]2C[C@H](N(C)C)[C@H](O)[C@H](C)O2)c2c(cc3c(c2O)C(=O)c2c(O)cccc2C3=O)[C@H]1C(=O)OC — result for “melting temperature shift”: -17.1 °C (T2, miR-21 precursor (Homo sapiens); DSF; 3 µM, NaCl 0.25 mM).
The Hill coefficient of `IINFEKL` is reported as 1.4 (Endoplasmic reticulum aminopeptidase 1 (ERAP1, Homo sapiens, UniProt Q9NZ08, I681R); substrate; peptide; pH 8.0, 27 °C, mutant I681R, together with: L-AMC, peptide activator 100 µM).
For O=C(O)Cc1ccccc1Nc1c(Cl)cccc1Cl, the current change was -2.78 µA (Degenerin mec-4 (mec-4, Caenorhabditis elegans, UniProt P24612, A713T); ion current, two-electrode voltage clamp; Xenopus oocytes coexpressing MEC-2; 30 µM, -85 mV; reference: uninjected oocytes, positive inhibition, negative potentiation).
For O=C(Nc1ccccc1C(=O)Nc1ccccc1C(=O)NCc1ccco1)c1ccco1, the efficacy was 80% (Relaxin receptor 1 (RXFP1, Homo sapiens, UniProt Q9HBX9); cAMP level, agonist, HTRF; HEK293 cells expressing RXFP1; reference: forskolin 57.5 µM as 100%).
CCOc1ccccc1S(=O)(=O)N1CC(c2nc(-c3ccc(F)cn3)no2)C1 — result for activity class: “inactive” (KCNT1; Tl+ flux, inhibitor; HEK293 expressing KCNT1; 30 µM).
The ΔG of CC(C)C[C@H](NC(=O)[C@H](C)NC(=O)[C@@H](N)[C@@H](C)O)C(=O)N1CCC[C@H]1C(=O)N1CCC[C@H]1C(=O)N1CCC[C@H]1C(=O)N1CCC[C@H]1C(=O)N[C@@H](Cc1ccc(O)cc1)C(=O)N[C@@H](CCCNC(=N)N)C(=O)N[C@@H](Cc1c[nH]cn1)C(=O)N[C@@H](CCCNC(=N)N)C(=O)N[C@@H](CC(N)=O)C(=O)O is reported as -5.93 ± 0.09 kcal/mol (YAP1 WW1 domain; binding, ITC; pH 7.0, 25 °C, WW1 domain).
COc1ccc(Cl)cc1Nc1nc2c(s1)CCCc1nc(NC(=O)c3ccno3)sc1-2 gave a Vmax of 505 µM/s (CFTR del508-508; iodide influx, corrector, YFP halide quenching; FRT cells expressing YFP-H148Q/I152L; 16 to 20 h, 37 °C, genistein 50 µM, together with: forskolin 20 µM).

For quick reference, copied from above:
For CC[C@H](C)[C@H](NC(=O)[C@@H]1CCCN1C(=O)[C@@H]1CCCN1C(=O)[C@@H]1CCCN1C(=O)[C@@H](NC(=O)[C@H](CC(N)=O)NC(=O)[C@@H](N)Cc1ccccc1)[C@@H](C)CC)C(=O)N[C@@H](Cc1ccc(O)cc1)C(=O)N[C@H](C(=O)N[C@@H](CO)C(=O)N[C@@H](CCCNC(=N)N)C(=O)N[C@@H](C)C(=O)O)[C@@H](C)O, the ΔG was -5.4 ± 0.09 kcal/mol (YAP1 WW1 domain; binding, ITC; pH 7.0, 25 °C, WW1 domain).
With CC(C)CCN[C@@H]1C[C@@H](c2ccc(Cl)c(Cl)c2)c2ccccc21 (relative stereo) the Ki' was 16.8 ± 3.3 µM (Trypanothione reductase (TPR, Trypanosoma cruzi, UniProt P28593); enzyme activity, mixed inhibitor; together with: trypanothione disulfide 0.58 to 50 µM).
